Experimental data of several laboratories.
Each line is one published result; not all experiments were run side by side. Several values in a cell are separate wells, animals, samples, runs or records. Numbers after ± are the reported error.
UniProt P10635, sequence (whole entry, looked up): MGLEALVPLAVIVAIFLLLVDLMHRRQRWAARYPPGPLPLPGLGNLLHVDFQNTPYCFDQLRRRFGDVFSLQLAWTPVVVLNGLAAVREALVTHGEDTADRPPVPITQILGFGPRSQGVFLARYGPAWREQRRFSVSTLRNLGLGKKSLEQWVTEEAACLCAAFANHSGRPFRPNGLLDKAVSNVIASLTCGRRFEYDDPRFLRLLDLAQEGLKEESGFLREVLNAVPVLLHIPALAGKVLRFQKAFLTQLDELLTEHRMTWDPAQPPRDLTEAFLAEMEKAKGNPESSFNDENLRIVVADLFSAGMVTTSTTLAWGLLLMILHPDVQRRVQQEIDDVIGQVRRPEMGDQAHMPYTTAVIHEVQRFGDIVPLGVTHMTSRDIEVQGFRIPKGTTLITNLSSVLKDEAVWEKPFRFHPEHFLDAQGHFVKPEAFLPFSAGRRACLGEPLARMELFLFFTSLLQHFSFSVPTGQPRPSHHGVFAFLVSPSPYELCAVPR

O=C1C2CC3CC1CC(C(=O)N1CCN(c4ccc([N+](=O)[O-])c5ncccc45)CC1)(C3)C2 — mean revertant colonies (Salmonella typhimurium; Ames test; TA97a; 0.02 µg/well, with S9): 23 colonies/well
COc1cccc(OC)c1-c1cc(C(=O)NC2(C(=O)O)C3CC4CC(C3)CC2C4)nn1-c1ccc(C(=O)N(C)CCOCCN(C)C(=O)[C@H](CCCCNC(=O)[C@H](CC(C)C)NC(=O)C2OC2C(=O)O)NC(=O)CN2CCN(CC(=O)[O-])CCN(CC(=O)[O-])CCN(CC(=O)[O-])CC2)cc1C(C)C.[177Lu+3] (mixture of isomers) — tracer uptake (HT-29 tumour model; host not given, pancreas; 7 days, tumour-bearing): 0.04 %ID/g
CCc1c(-c2ccc3[nH]ncc3c2)cnc(N)c1-c1ccc(O)cc1 — viability (CHP-212 resistant sublines (heterozygous USP7 V517F); cell viability; 0.7812 µM): 108% and 107%
CN(C)c1ccc2c(c1)C(C)(C)c1cc(N(C)C)ccc1C21OC(=O)c2c(C(=O)O)cccc21 — Kd (Albumin (ALB, Homo sapiens, UniProt P02768); binding, fluorescence titration; PBS): 46 ± 11 µM
Cc1nc(N)nc2c1C(=O)N[C@@H](c1ccc(F)cc1-c1cccc(O[11CH3])n1)C2 — tracer uptake (radioligand, ex vivo biodistribution; mouse, MDA-MB-231 xenograft, tumour; 60 min p.i.): 0.9 ± 0.1 %ID
COC(=O)Nc1nc2cc(C(O)c3ccc(F)cc3)ccc2[nH]1 (stereo not drawn) — revertants (Salmonella typhimurium; Ames preincubation test; TA100; 218.8 µg/plate, without S9): 164 revertants/plate
O=C1NC2(CC2)COc2ncc(F)cc2[C@H]2COCCN2c2ccn3ncc1c3n2 — revertant colonies (Salmonella typhimurium; Ames test; TA100; 150 µg/plate, 48 h, added: rat liver S9): 79 ± 5 revertants/plate
C=C(NC(=O)c1csc(-c2nc3c(cc2O)-c2nc(cs2)C(=O)NC(C(C)O)C(=O)NC(=C(C)OC)c2nc(cs2)C(=O)NC2c4nc(cs4)C(=O)NC(COC(=O)c4c5c6c(cccc6n4O)COC(=O)C(OC4CC(C)(O)C(N(C)C)C(C)O4)C2OC5)c2nc-3cs2)n1)C(N)=O (stereo not drawn) — Cmax (male cynomolgus monkey, plasma; intravenous, 9 mg/kg, single dose, infusion): 31800 ng/mL
COc1cccc(OC)c1-c1cc(C(=O)NC2(C(=O)O)C3CC4CC(C3)CC2C4)nn1-c1ccc(C(=O)N(C)CCOCCOCCN(C)C(=O)[C@H](CCCCNC(=O)[C@H](CC(C)C)NC(=O)C2OC2C(=O)O)NC(=O)CN2CCN(CC(=O)[O-])CCN(CC(=O)[O-])CCN(CC(=O)[O-])CC2)cc1C(C)C.[177Lu+3] (mixture of isomers) — tracer uptake (HT-29 tumour model; host not given, pancreas; 24 h, tumour-bearing): 0.13 %ID/g
Cc1ncsc1-c1ccc(C(C)NC(=O)C2CC(O)CN2C(=O)C(NC(=O)CCCCCCCCCCN2CCCC(Nc3ncc(Cl)c(Nc4ccccc4S(=O)(=O)C(C)C)n3)C2)C(C)(C)C)cc1 (stereo not drawn) — log2 fold change (22Rv1; RNA-seq, item: SAMD12 mRNA; concentration not given; relative to: DMSO): -1.2
CC(C)OCCOCc1ccc(OCC(O)CN(N=O)C(C)C)cc1 (stereo not drawn) — revertant fold increase (Salmonella typhimurium; Ames test; TA1537; 1580 µg/plate, 30 % rat S9; relative to: solvent control): 1.1 fold
O=C(Nc1cnccc1-c1ccc([18F])cc1)c1ccnc(NC(=O)C2CC2)c1 — SUV (mice, transgenic, GSK-3β, early-stage, skin; intravenous, dose not given, 120 min, added: tariquidar 15 mg/kg i.v. pre-dose): 0.19
O=C(Oc1cc(OC(=O)c2cc(O)c(O)c(O)c2)c2ccccc2c1)c1cc(O)c(O)c(O)c1 — therapeutic index (HSV-2 strain 333; viral DNA replication, qPCR; BEAS-2B; relative to: CC50 over IC50): 37
Cc1nc(Nc2ncc(C(=O)Nc3c(C)cccc3Cl)s2)cc(N2CCN(C(=O)CCOCCNC(=O)CN)CC2)n1 — viability (K562; cell growth or viability, CCK-8; 250 pM): 93% and 91% and 94%
N#C[C@@H]1CCCN1C(=O)CNC(=O)c1ccnc2ccc(OCCCN3CCN(C(=O)CCc4ccc5c(c4)CN4CCN6CC(=O)[O][68Ga-]([O]C(=O)C4)([O]5)[O]c4ccc(CCC(=O)N5CCN(CCCOc7ccc8nccc(C(=O)NCC(=O)N9CCC[C@H]9C#N)c8c7)CC5)cc4C6)CC3)cc12 — tracer uptake (U-87 MG tumour model; host not given, bone; 2 h, tumour-bearing): 5.02 %ID/g
CC(C)Cc1ccc(C(C)C(=O)N[C@@H](CCCCNC(=O)CCOCCOCCOCCOCCOCCOCCNC(=O)CN2CCN(CC(=O)[O-])CCN(CC(=O)[O-])CCN(CC(=O)[O-])CC2)C(=O)Nc2cccc3c(C(=O)NCC(=O)N4CC(F)(F)C[C@H]4C#N)ccnc23)cc1.[177Lu+3] (stereo partly drawn) — tracer uptake (U-87 MG tumour model; host not given, blood; 24 h, tumour-bearing): 0.62 %ID/g
CNC(=O)C1CCCN(C(=O)C2CC3CCC2N3C(=O)[C@@H]2C[C@@H](O)CN2C(=O)NCc2cccc(Cl)c2F)C1 (mixture of isomers) — dextrorphan formation (Cytochrome P450 2D6 (CYP2D6, Homo sapiens, UniProt P10635); enzyme activity, inhibitor, time-dependent inhibition; 5.56 µM, preincubated without NADPH): 150 ng/mL
N#C[C@@H]1CC(F)(F)CN1C(=O)CNC(=O)c1ccnc2c(NC(=O)[C@@H](N)CCCCNC(=O)CCOCCOCCOCCOCCOCCOCCNC(=O)CN3CCN(CC(=O)[O-])CCN(CC(=O)[O-])CCN(CC(=O)[O-])CC3)cccc12.[177Lu+3] — tracer uptake (U-87 MG tumour model; host not given, liver; 4 h, tumour-bearing): 0.38 %ID/g
CCN(CC)CC#CCNc1ccnc2cc(Cl)ccc12 — revertants per well (Salmonella typhimurium; mini-Ames test; TA102; 62.5 µg/well, with rat liver S9): 71
N#C[C@@H]1CC(F)(F)CN1C(=O)CNC(=O)c1ccnc2c(NC(=O)[C@H](CCCCNC(=O)CCOCCOCCOCCOCCOCCOCCNC(=O)CN3CCN(CC(=O)[O-])CCN(CC(=O)[O-])CCN(CC(=O)[O-])CC3)NC(=O)CCCc3ccc(I)cc3)cccc12.[177Lu+3] — tracer uptake (U-87 MG tumour model; host not given, muscle; 4 h, tumour-bearing): 1.07 %ID/g
COC1CN([C@H]2CC[C@H]([C@@]3(C)Oc4c(Cl)cc(C(=O)NCc5c(SC)cc(C)[nH]c5=O)c(C)c4O3)CC2)C1 — log2 fold change (RNA-seq, item: PRSS23; human, whole blood; dose not given, 24 h; relative to: pretreatment baseline): 1.01
